# Measured values gathered from unrelated publications.
# Parts stem from different laboratories: compare values within a part only.

# Sample 1 — method: competition protein-binding microarray; molecule type: double-stranded DNA, one strand shown; matrix: in vitro; concentration: 2 µM; together with: Cbf1 competitor, 0.05 µM; direction: higher = stronger binding; all sequences stand within: … GTCTTGATTCGCTTGACGCTGCTG
# Target: Phosphate system positive regulatory protein PHO4, full length, GST-tagged (PHO4, Saccharomyces cerevisiae, UniProt P07270, residues 1-312)
# Setting: whole 60-bp probe, lowest competitor level
# Residues (chain): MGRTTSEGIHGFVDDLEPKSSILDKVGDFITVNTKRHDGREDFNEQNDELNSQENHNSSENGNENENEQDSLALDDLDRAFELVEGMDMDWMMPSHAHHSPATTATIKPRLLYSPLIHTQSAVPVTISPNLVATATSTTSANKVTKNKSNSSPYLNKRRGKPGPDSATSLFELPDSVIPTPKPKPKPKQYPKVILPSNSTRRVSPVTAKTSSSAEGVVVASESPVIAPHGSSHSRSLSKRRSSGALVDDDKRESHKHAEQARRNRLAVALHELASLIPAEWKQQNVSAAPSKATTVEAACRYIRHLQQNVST
Oligonucleotide,fluorescence intensity
CGCGCCACTGCTACTCATGTGCTGCAAACTAACAGT,8000 a.u.
GTCTTGTCTCATTGTGTCGTGGGTGTCCCCACTTCA,7100 a.u.
GTACTGGAATTGTATGCCAAACTTTGCCGGGAAAAC,3930 a.u.
TCGCAGATGCCATATCCCGTGCCAGATATACTATAA,8490 a.u.
CACCTATCATCAGCCAACGTGACGGCCGCGATGCCT,10800 a.u.
GTCTTGTCTCATTGACGCGTGGGTGTCCCCACTTCA,10300 a.u.

# Sample 2 — method: universal PBM; molecule type: double-stranded DNA, one strand shown; matrix: in vitro; concentration: 600 nM; direction: higher = stronger binding
# Target: Sal-like protein 4, full length isoform A (SALL4, Homo sapiens, UniProt Q9UJQ4, residues 1-1053)
# UniProt Q9UJQ4, sequence (whole entry, looked up): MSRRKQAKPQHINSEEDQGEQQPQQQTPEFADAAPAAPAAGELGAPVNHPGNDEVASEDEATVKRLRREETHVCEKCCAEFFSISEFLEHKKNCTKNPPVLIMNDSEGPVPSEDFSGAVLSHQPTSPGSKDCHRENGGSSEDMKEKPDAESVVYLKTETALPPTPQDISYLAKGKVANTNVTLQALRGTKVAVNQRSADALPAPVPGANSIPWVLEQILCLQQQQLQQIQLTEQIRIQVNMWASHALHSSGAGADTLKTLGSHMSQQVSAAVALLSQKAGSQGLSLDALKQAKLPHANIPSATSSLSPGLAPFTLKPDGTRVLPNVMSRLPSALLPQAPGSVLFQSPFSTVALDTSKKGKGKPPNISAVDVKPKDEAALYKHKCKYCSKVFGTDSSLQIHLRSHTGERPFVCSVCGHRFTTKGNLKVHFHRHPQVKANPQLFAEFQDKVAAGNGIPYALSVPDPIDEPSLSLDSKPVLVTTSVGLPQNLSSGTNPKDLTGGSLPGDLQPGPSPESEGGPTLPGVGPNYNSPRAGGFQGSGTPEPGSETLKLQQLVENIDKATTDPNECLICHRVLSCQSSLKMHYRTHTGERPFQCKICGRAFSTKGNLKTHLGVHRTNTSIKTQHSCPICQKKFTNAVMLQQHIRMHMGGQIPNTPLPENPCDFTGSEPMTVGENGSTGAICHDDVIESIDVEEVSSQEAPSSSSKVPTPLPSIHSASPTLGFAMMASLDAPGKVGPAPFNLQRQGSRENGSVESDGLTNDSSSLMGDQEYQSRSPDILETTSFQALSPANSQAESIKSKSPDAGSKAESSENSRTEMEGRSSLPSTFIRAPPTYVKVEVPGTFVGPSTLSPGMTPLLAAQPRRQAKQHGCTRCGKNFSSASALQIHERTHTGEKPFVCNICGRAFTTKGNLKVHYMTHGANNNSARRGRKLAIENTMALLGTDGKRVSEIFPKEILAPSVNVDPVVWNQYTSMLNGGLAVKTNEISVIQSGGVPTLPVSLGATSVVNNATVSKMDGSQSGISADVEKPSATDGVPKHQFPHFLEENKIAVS
# Setting: 8-mer, flanks averaged, mean of replicates
Oligonucleotide,E-score
ATATTGGC,0.212
ACGCGAAT,0.0724
AAAGTTGT,0.207
CTGGGTGA,-0.165
ACCTTGGG,-0.0919
AGTTGTTC,0.0842
AGCCTTAT,0.16

# Sample 3 — method: protein binding microarray; molecule type: double-stranded DNA, one strand shown; matrix: in vitro; concentration: not given; baseline: not given; direction: higher = stronger binding
# Target: Histone acetyltransferase KAT6A, both winged helices, GST fusion (KAT6A, Homo sapiens, UniProt Q92794, residues 1-181)
# Setting: 8-mer, flanks averaged, mean of 2 arrays, mostly near background
# Target sequence (chain): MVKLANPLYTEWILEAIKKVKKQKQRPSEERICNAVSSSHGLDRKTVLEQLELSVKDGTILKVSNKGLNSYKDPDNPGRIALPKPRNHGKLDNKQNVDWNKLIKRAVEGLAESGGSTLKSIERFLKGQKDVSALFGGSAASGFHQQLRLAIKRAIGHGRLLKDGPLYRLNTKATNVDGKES
Oligonucleotide,E-score
CCTGTCAA,-0.0943
AAACTGCT,-0.0294
CAGCCTTC,-0.133
AGCCGGAG,0.16
CGTCGAGA,-0.0843
GACCACAC,-0.183
ATACACTC,-0.0309
CGCAGGTA,0.0402
GAGCTCGC,0.0921
CTGCGCAA,0.176
CAGGATCG,-0.0714

# Single results of other studies
Molecule,target,test,system,setting,scale,quantity,result
"PhoQ, residues 284 288 289 292 302 303 SSYNSA","PhoP, residues 12 14 15 18 19 LHHSG (Escherichia coli, UniProt P23836)","Sort-seq, item: YFP reporter",E. coli,"PhoQ-PhoP variant library, together with: 10 µM Mg2+","baseline: high Mg2+ state, higher = stronger signaling",fold induction,16.6

# A few entries again (sample 3):
Oligonucleotide,E-score
CAGGATCG,-0.0714
GAGCTCGC,0.0921
AAACTGCT,-0.0294
